Measurements gathered from unrelated publications.
Organism: Pseudomonas aeruginosa

| Compound | test | test system | conditions | MIC |
| --- | --- | --- | --- | --- |
| N=C(N)NCCC[C@H](NC(=O)[C@H](Cc1c[nH]c2ccccc12)NC(=O)[C@H](CCC(N)=O)NC(=O)[C@H](Cc1c[nH]c2ccccc12)NC(=O)[C@H](CCCNC(=N)N)NC(=O)[C@@H](N)CCCNC(=N)N)C(=O)NCCCC[C@H](NC(=O)[C@H](CCCNC(=N)N)NC(=O)[C@H](Cc1c[nH]c2ccccc12)NC(=O)[C@H](CCC(N)=O)NC(=O)[C@H](Cc1c[nH]c2ccccc12)NC(=O)[C@H](CCCNC(=N)N)NC(=O)[C@@H](N)CCCNC(=N)N)C(=O)NCCCCCC(=O)N[C@@H](CSSC[C@H](NC(=O)CCCCCNC(=O)[C@H](CCCCNC(=O)[C@H](CCCNC(=N)N)NC(=O)[C@H](Cc1c[nH]c2ccccc12)NC(=O)[C@H](CCC(N)=O)NC(=O)[C@H](Cc1c[nH]c2ccccc12)NC(=O)[C@H](CCCNC(=N)N)NC(=O)[C@@H](N)CCCNC(=N)N)NC(=O)[C@H](CCCNC(=N)N)NC(=O)[C@H](Cc1c[nH]c2ccccc12)NC(=O)[C@H](CCC(N)=O)NC(=O)[C@H](Cc1c[nH]c2ccccc12)NC(=O)[C@H](CCCNC(=N)N)NC(=O)[C@@H](N)CCCNC(=N)N)C(N)=O)C(N)=O | broth microdilution | ATCC 27853 | 24 h, 37 °C | 11 µM |
| CC(C)C[C@@H](NC(=O)[C@@H](CC(C)C)NC(=O)[C@@H](CCCCN)NC(=O)[C@@H](CCCCNC(=O)[C@@H](CC(C)C)NC(=O)[C@@H](CC(C)C)NC(=O)[C@@H](CCCCNC(=O)[C@@H](CC(C)C)NC(=O)[C@@H](CCCCN)NC(=O)[C@@H](CCCCNC(=O)[C@@H](CC(C)C)NC(=O)[C@H](N)CCCCN)NC(=O)[C@@H](CC(C)C)NC(=O)[C@H](N)CCCCN)NC(=O)[C@@H](CC(C)C)NC(=O)[C@@H](CCCCN)NC(=O)[C@@H](CCCCNC(=O)[C@@H](CC(C)C)NC(=O)[C@H](N)CCCCN)NC(=O)[C@@H](CC(C)C)NC(=O)[C@H](N)CCCCN)NC(=O)[C@@H](CC(C)C)NC(=O)[C@@H](CC(C)C)NC(=O)[C@@H](CCCCNC(=O)[C@@H](CC(C)C)NC(=O)[C@@H](CCCCN)NC(=O)[C@@H](CCCCNC(=O)[C@@H](CC(C)C)NC(=O)[C@H](N)CCCCN)NC(=O)[C@@H](CC(C)C)NC(=O)[C@H](N)CCCCN)NC(=O)[C@@H](CC(C)C)NC(=O)[C@@H](CCCCN)NC(=O)[C@@H](CCCCNC(=O)[C@@H](CC(C)C)NC(=O)[C@H](N)CCCCN)NC(=O)[C@@H](CC(C)C)NC(=O)[C@H](N)CCCCN)C(N)=O | broth microdilution | PAO1 | 37 °C | 4 µg/mL |
| CC1=NN(CNc2ccc(C(=O)O)c(O)c2)C(=O)/C1=N/Nn1c(-c2ccccc2)nc2ccccc2c1=O | microbial growth, broth dilution | – | 24 h | 24.4 µM |
| COc1ccc2c(c1CC=C(C)C)O[C@H]1c3cc(CC=C(C)C)c(O)cc3OC[C@@H]21 | – | ATCC 10145 | – | 128 µg/mL |
| CCn1[c]([Au-][Cl])[n+](CC)c2ccc(C(=O)OC)cc21 | broth dilution | PA7 DSM 24068 | 20 h, 37 °C | > 60 µM |
| COc1ccc2ccc3c(c2c1)C=[N+]1C2CCCCC2[N+]2=Cc4ccc(-c5ccccc5)cc4[O][Au-]21[O]3.F[P-](F)(F)(F)(F)F (stereo not shown) | bacterial growth, broth microdilution | carbapenem-resistant clinical isolate | 24 h | > 20 µM |
| CC(=O)N[C@H](CCCCN)C(=O)N[C@H](CC(C)C)C(=O)N[C@H](CCCCN)C(=O)N[C@H](CO)C(=O)N[C@H](CC(C)C)C(=O)N[C@H](CC(C)C)C(=O)N[C@H](CCCCN)C(=O)N[C@@H](C(=O)N[C@H](CC(C)C)C(=O)N[C@H](CO)C(=O)N[C@H](CCCCN)C(=O)N[C@H](C)C(=O)N[C@H](CCCCN)C(=O)N[C@H](CCCCN)C(=O)N[C@H](CCCCN)C(=O)N[C@H](CCCCN)C(=O)N[C@H](CC(C)C)C(=O)N[C@H](CCCCN)C(=O)N[C@@H](C(=O)N[C@H](CC(C)C)C(=O)N[C@H](CC(C)C)C(=O)N[C@H](CCCCN)C(=O)N[C@H](C)C(=O)N[C@H](CC(C)C)C(=O)N[C@H](CO)C(=O)N[C@H](CCCCN)C(N)=O)[C@H](C)O)[C@H](C)O | broth microdilution | PAO1 | 24 h, 37 °C | 1.3 µM |
| CC1(C)S[C@@H]2[C@H](NC(=O)[C@H](NC(=O)C3=C(O)C(c4ccccc4F)NC3=O)c3ccccc3)C(=O)N2[C@H]1C(=O)O (stereo partly shown) | broth microdilution | PAO1, Mueller-Hinton broth | added: CCCP 50 µg/mL | 6.25 µg/mL |
| C=CCOC(=O)c1ccc(NC(=O)c2ccc(NC(=O)c3ccc(NC(=O)C(CC(N)=O)NC(=O)c4ccc(NC(=O)c5ccc([N+](=O)[O-])cc5)cc4)cc3)c(OC(C)C)c2OCC=C)cc1 (stereo not shown) | – | PA14 ΔmexAB | – | > 64 µg/mL |
| COc1ccc2ccc3c(c2c1)C=[N+]1C2CCCCC2[N+]2=Cc4c(F)cccc4[O][Au-]21[O]3.F[P-](F)(F)(F)(F)F (stereo not shown) | bacterial growth, broth microdilution | carbapenem-resistant | 24 h | > 20 µM |
| CN1CCC(NCCC2(Cc3ccc(Cl)cc3)CCCCC2)CC1 | microbial growth | – | 10 h | 200 µM |
| CCCCCCCCCCCC(=O)NCCCC[C@@H]1NC(=O)[C@H](CCCNC(=N)N)NC(=O)[C@H](CCCNC(=N)N)NC(=O)[C@H](CCCNC(=N)N)NC(=O)[C@H](CCCNC(=N)N)NC(=O)[C@H](CCCNC(=N)N)NC1=O | broth microdilution | PAO1 | 37 °C | 136 µg/mL |
| Oc1c(Br)ccc2cccnc12 | microbial growth, agar dilution | ATCC27853 | – | > 1140 µM |
| COc1ccc2ccc3c(c2c1)C=[N+]1C2CCCCC2[N+]2=Cc4cc(C)ccc4[O][Au-]21[O]3.F[P-](F)(F)(F)(F)F (stereo not shown) | bacterial growth, broth microdilution | carbapenem-resistant | 24 h | > 20 µM |
| CC[C@@H](C)[C@@H](NC(=O)[C@@H](C)NC(=O)[C@@H](CCCCN)NC(=O)[C@@H](CC(C)C)NC(=O)[C@@H](C)NC(=O)[C@H](NC(=O)[C@@H](Cc1c[nH]cn1)NC(=O)[C@@H](CC(C)C)NC(=O)[C@H](NC(=O)[C@H](NC(=O)[C@@H](CCCCN)NC(=O)[C@H](NC(=O)[C@@H](C)NC(=O)[C@@H](CO)NC(=O)[C@@H](CCCCN)NC(=O)[C@@H](Cc1ccccc1)NC(=O)[C@H](NC(=O)[C@@H](CCCCN)NC(=O)[C@@H](CC(C)C)NC(=O)[C@@H](Cc1ccccc1)NC(=O)[C@@H](CO)NC(=O)[C@@H](CCCCN)NC(=O)[C@@H](Cc1c[nH]c2ccccc12)NC(=O)[C@@H](CCCCN)NC(C)=O)[C@H](C)O)C(C)C)[C@H](C)O)C(C)C)[C@H](C)O)C(=O)N[C@H](CO)C(=O)N[C@H](CO)C(N)=O | broth microdilution | M2 | 24 h, 37 °C | 2.6 µM |
| COc1ccc2ccc3c(c2c1)C=[N+]1C2CCCCC2[N+]2=Cc4cc(C(C)(C)C)ccc4[O][Au-]21[O]3.F[P-](F)(F)(F)(F)F (stereo not shown) | bacterial growth, broth microdilution | carbapenem-resistant | 24 h | 10 µM |
| COc1ccc2c(c1CC=C(C)C)O[C@H]1c3cc4c(cc3OC[C@@]21O)OC(C)(C)C=C4 | – | ATCC 10145 | – | 128 µg/mL |
| COc1ccc(-c2ccn(CC[C@](C)(C(=O)NO)S(C)(=O)=O)c(=O)c2)c(F)c1 | microbial growth | PAO1 | – | 0.5 µg/mL |
| CC(=O)N[C@H](CCCCN)C(=O)N[C@H](CC(C)C)C(=O)N[C@H](CCCCN)C(=O)N[C@H](CO)C(=O)N[C@H](CC(C)C)C(=O)N[C@H](CC(C)C)C(=O)N[C@H](CCCCN)C(=O)N[C@@H](C(=O)N[C@H](CC(C)C)C(=O)N[C@H](CO)C(=O)N[C@H](CCCCN)C(=O)N[C@H](C)C(=O)N[C@H](CCCCN)C(=O)N[C@H](CCCCN)C(=O)N[C@H](CCCCN)C(=O)N[C@H](CC(C)C)C(=O)N[C@H](CC(C)C)C(=O)N[C@H](CCCCN)C(=O)N[C@@H](C(=O)N[C@H](C)C(=O)N[C@H](CC(C)C)C(=O)N[C@H](CCCCN)C(=O)N[C@H](C)C(=O)N[C@H](CC(C)C)C(=O)N[C@H](CO)C(=O)N[C@H](CCCCN)C(N)=O)[C@H](C)O)[C@H](C)O | broth microdilution | PA14 | 24 h, 37 °C | 0.7 µM |

Repeated from above:
| Compound | test | test system | conditions | MIC |
| --- | --- | --- | --- | --- |
| CC1=NN(CNc2ccc(C(=O)O)c(O)c2)C(=O)/C1=N/Nn1c(-c2ccccc2)nc2ccccc2c1=O | microbial growth, broth dilution | – | 24 h | 24.4 µM |
| COc1ccc2ccc3c(c2c1)C=[N+]1C2CCCCC2[N+]2=Cc4ccc(-c5ccccc5)cc4[O][Au-]21[O]3.F[P-](F)(F)(F)(F)F (stereo not shown) | bacterial growth, broth microdilution | carbapenem-resistant clinical isolate | 24 h | > 20 µM |
| CC(C)C[C@@H](NC(=O)[C@@H](CC(C)C)NC(=O)[C@@H](CCCCN)NC(=O)[C@@H](CCCCNC(=O)[C@@H](CC(C)C)NC(=O)[C@@H](CC(C)C)NC(=O)[C@@H](CCCCNC(=O)[C@@H](CC(C)C)NC(=O)[C@@H](CCCCN)NC(=O)[C@@H](CCCCNC(=O)[C@@H](CC(C)C)NC(=O)[C@H](N)CCCCN)NC(=O)[C@@H](CC(C)C)NC(=O)[C@H](N)CCCCN)NC(=O)[C@@H](CC(C)C)NC(=O)[C@@H](CCCCN)NC(=O)[C@@H](CCCCNC(=O)[C@@H](CC(C)C)NC(=O)[C@H](N)CCCCN)NC(=O)[C@@H](CC(C)C)NC(=O)[C@H](N)CCCCN)NC(=O)[C@@H](CC(C)C)NC(=O)[C@@H](CC(C)C)NC(=O)[C@@H](CCCCNC(=O)[C@@H](CC(C)C)NC(=O)[C@@H](CCCCN)NC(=O)[C@@H](CCCCNC(=O)[C@@H](CC(C)C)NC(=O)[C@H](N)CCCCN)NC(=O)[C@@H](CC(C)C)NC(=O)[C@H](N)CCCCN)NC(=O)[C@@H](CC(C)C)NC(=O)[C@@H](CCCCN)NC(=O)[C@@H](CCCCNC(=O)[C@@H](CC(C)C)NC(=O)[C@H](N)CCCCN)NC(=O)[C@@H](CC(C)C)NC(=O)[C@H](N)CCCCN)C(N)=O | broth microdilution | PAO1 | 37 °C | 4 µg/mL |
